Measured values of several laboratories.
A part holds a random share of what one study measured.

Set 1
Target: Interferon regulatory factor 5, full length, phosphomimetic (IRF5, Homo sapiens, UniProt Q13568-2, residues 1-514, K96S/S451D/S453D/S456D/S462D)
Method: protein-binding microarray
Molecule type: double-stranded DNA, one strand shown
Medium: in vitro
Concentration: 250 nM
Notes: 60-bp whole probe
Together with: salmon DNA 0.4 mg/ml
Reference: random background probes
Direction: higher = stronger binding
All sequences stand within: GCCTAGCAC … GTCTTGATTCGCTTGACGCTGCTG
Sequence	log fluorescence
GACGGTTCCCTTTTACTGACGTGCTAG	0.494 z-score
GACGGACTGGACTTACGGGACGTGCTA	-0.672 z-score
GACAGTATCCTTTTCCTGACGTGCTAG	1.02 z-score
TCATTTCTCCCAAGTCTTACTGTGCTA	1.39 z-score
TCATTTTACATTATTACACTGTGCTAG	1.12 z-score
AATCAACTTTTTTTAATTGAGTGCTAG	0.962 z-score
GACGGTATCGGTTTCGCGACGTGCTAG	6.97 z-score
GACGGTTTCCTTTTCCAGACGTGCTAG	1.02 z-score
GACAGTCTCCTTTTCCTGACGTGCTAG	0.246 z-score
GACGGTATTGGGTTTCGGGACGTGCTA	2.35 z-score
TCAACAATGATGTTTTGAACTGTGCTA	0.576 z-score
CTGTTTTTGCTTTCTTTATGGTGCTAG	2.86 z-score
GACGATATAGGGTATCGAGACGTGCTA	0.553 z-score
TCATGACTGGAGTCTGGAACTGTGCTA	-0.299 z-score
TTAGAACTGGGGAATCGATTAGTGCTA	0.333 z-score
TTAGGTTTCGGGTTTCGGTTCGTGCTA	9.7 z-score
TTAGGTTCCCTTTACCTTTAGTGCTAG	0.435 z-score
GACGATTTAGGGTTTCGAGACGTGCTA	1.26 z-score
ACACTCTTCTTTTGCTAATTGTGCTAG	1.26 z-score

Set 2
Target: RNA binding protein fox-1 homolog 2, RRM domain, GST-SBP tag (RBFOX2, Homo sapiens, UniProt O43251-10, residues 100-194)
Method: RNA Bind-n-Seq
Molecule type: RNA
Medium: in vitro
Concentration: 365 nM
Notes: natural RNA segment, single round, ends assumed
Reference: no-protein control
Direction: higher = stronger binding
Target sequence (chain): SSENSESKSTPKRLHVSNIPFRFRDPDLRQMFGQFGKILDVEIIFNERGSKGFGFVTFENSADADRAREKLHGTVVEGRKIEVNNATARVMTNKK
Sequence	RBNS enrichment (R)
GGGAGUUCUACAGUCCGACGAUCAAAAAUAGAAAUUACACUCAGGAUCACUGUUACUGCUAUUGCCACUGAUGAUUCCUGCAAAAAUAUAAUCGAAGUUUUCCAUCAAAUGUAUAAUAUGCUAUUAAUACACAUGGAAUUCUCGGGUGCCAA	0.811
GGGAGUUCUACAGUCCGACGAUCUGCUCUGACCUUGUGUAUUCUGACUCUUUGGAAACCAGGCCCUGCUUUUGCCAAGCCUCCCAUCCUGAGCUCUAAAUGGAAGGCCUUUCUAUGGGGUAGCUAAGUUUGGGUGGAAUUCUCGGGUGCCAA	0.242
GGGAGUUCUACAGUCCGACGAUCGUGACUGAAGCCGCUUAGUGCUGUGGCCUCACUGCAGGCAGGAGCCCCGCCCCUCCUGCCGGGGGAGGCCCAGGGACCGGAGCAUUUCUGCAAGGCCCUUGUGGGCACGAUGGAAUUCUCGGGUGCCAA	0.269
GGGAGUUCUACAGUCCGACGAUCUCCUAAACGAAUGCCUAGCAUAGAGAAAAUACUUAAUACACAUUUGUUGACUUAAAUUUAAUUCAAGGAUUGAAAAAUUAACUGGAUAUCUUGAAAUAUACAGUAAUGAUUGGAAUUCUCGGGUGCCAA	1.42
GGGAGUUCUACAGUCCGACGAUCUCCACCUGCUGCCCAAGGGAUGUGAGCUUGGACUUCGGGGCACUCUCAGGGGGCUGUGUCUGAGUGACGGGUGUAUGUCUGUCUCAGAGAAUGUGUGUCUGUGGCCCCAAUGGAAUUCUCGGGUGCCAA	5.1
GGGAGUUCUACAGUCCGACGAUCCAUUUCCGUUUGCAGUUCUACUAAAGACACUCUGAGAAAUAUUCCGAGUUUCGUAUUAACCUUUCCUGUCCAUGUAACAACUUCAUGACCAUUACUGCAUUGUCAAAUUCUGGAAUUCUCGGGUGCCAA	0.297
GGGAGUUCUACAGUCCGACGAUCAACAUACCACUUCUUUGUUUAACUCCUUUACCUUUCCAGCCCUUUGAGGAGGGACCAUGAGAACAGAAAUUACCUUAUGAAAAGCUACUUCUGUUCCUGCUUUCCCUCUCUGGAAUUCUCGGGUGCCAA	0.436
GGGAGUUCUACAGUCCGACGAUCAUGUAUGUUUAAUAUAACAUGACAGGCACUAGGACGUCUGCCUUUUUAAGGCAGUUCCGUUAAGGGUUUUUGUUUUUAAACUUUUUUUUGCCAUCCAUCCUGUGCAAUAUUGGAAUUCUCGGGUGCCAA	0.436
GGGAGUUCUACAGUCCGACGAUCCUUAAGUGGAAGGAAAAGAGUGCUGAGAAAUGGCUCUGUAUAAUCUAUGGCUAUCCGAAUUCUCUGAAAAAAUAAUAAAAGUCCCCUCUAUUAUAUGAGCCUGUACAGAAUGGAAUUCUCGGGUGCCAA	1.19
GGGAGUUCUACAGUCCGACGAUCCGGAUCCAGACACCUGACCUAGAAUGCCUGCCCGCUAUCCCUGUGGCAGGAAAUAUCCCCUCAUGUCCCAGGGAAUUGCAGAUGGGUCUUCUAUACCCUUCUACCUGCCCUGGAAUUCUCGGGUGCCAA	0.318
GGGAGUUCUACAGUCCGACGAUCUUGCUUGAGUCCAGGAAUUUGAGACCAGCCUGGACAACACAGUGAGACCUCAUCUCUAUCAAAAAAUAAAAAUUAGCUAGAUGUGGUGGCAUGAGCCUGUGUUCCCAGCUUGGAAUUCUCGGGUGCCAA	0.792
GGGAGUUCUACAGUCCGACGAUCAUCUCCAUCUGUCAACAGGGGCGUGAGGUCCCAGGAAGUGGCCAAAAGCUAGACAGAUCCCCGUUCCUGACAUCACAGCAGCCUCCAACACAAGGCUCCAAGACCUAGGCUGGAAUUCUCGGGUGCCAA	0.369

Set 3
Target: Sal-like protein 4, full length isoform A (SALL4, Homo sapiens, UniProt Q9UJQ4, residues 1-1053)
Sequence of UniProt Q9UJQ4 (whole entry, looked up): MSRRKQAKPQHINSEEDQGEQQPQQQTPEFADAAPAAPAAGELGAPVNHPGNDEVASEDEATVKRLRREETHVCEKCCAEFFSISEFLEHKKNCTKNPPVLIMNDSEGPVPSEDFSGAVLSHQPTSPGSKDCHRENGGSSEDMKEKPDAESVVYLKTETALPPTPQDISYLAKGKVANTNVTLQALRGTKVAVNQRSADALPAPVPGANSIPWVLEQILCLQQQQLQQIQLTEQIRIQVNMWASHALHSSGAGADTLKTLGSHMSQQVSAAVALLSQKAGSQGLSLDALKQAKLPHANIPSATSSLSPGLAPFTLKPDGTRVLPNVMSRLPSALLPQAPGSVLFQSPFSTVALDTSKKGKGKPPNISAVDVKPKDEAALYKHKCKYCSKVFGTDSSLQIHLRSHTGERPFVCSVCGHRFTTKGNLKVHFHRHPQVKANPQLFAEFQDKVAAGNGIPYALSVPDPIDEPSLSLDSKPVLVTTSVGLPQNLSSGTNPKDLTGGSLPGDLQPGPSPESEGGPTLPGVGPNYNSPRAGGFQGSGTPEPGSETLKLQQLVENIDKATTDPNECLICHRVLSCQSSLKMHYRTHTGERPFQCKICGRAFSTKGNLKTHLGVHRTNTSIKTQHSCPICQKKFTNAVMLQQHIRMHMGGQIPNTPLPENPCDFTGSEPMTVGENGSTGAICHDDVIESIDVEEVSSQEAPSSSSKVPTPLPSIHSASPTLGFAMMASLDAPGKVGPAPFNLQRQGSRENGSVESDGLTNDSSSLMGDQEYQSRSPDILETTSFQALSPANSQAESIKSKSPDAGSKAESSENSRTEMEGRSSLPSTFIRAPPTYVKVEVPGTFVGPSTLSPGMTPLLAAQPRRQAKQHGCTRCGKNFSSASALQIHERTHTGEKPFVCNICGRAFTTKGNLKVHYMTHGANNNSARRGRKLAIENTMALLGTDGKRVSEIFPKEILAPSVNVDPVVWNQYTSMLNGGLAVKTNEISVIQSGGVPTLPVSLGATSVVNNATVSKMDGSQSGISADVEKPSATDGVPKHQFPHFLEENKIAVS
Method: universal PBM
Molecule type: double-stranded DNA, one strand shown
Medium: in vitro
Concentration: 600 nM
Notes: 8-mer, flanks averaged, mean of replicates
Direction: higher = stronger binding
Sequence	E-score
CGTACCTC	-0.238
CAGTACAA	0.0805
CACGTTAG	-0.0364
TACTGACA	0.0978
GGACCGCA	-0.267
ACGCCGTG	-0.177
GCTTAGCC	-0.275
GATACGCA	0.0231
GAAGGCTA	-0.0435
ACAAACGT	-0.00468
ATTAATCC	0.295
AAGGGTGT	-0.0943
GAACCAGC	-0.099
GATAATGA	0.294
GTAGGTTA	0.0618
GTGACTAA	0.154
AGAGTCTC	-0.192
ATTGAGCA	0.0784
TCTCCAAA	0.2
ACACAGTA	0.106

Set 4
Target: Centromere-binding protein 1, full length, His-tagged (CBF1, Saccharomyces cerevisiae, UniProt P17106, residues 1-351)
Sequence of UniProt P17106 (whole entry, looked up): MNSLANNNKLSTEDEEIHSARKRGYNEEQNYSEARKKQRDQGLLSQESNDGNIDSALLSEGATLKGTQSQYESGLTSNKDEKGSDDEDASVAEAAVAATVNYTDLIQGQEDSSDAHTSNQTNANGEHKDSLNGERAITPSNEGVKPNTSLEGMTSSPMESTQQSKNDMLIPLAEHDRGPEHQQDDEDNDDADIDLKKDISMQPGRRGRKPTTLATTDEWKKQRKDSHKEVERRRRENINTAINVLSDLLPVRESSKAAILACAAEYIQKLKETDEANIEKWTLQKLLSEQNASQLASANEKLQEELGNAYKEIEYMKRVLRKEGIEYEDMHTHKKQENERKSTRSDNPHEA
Method: competition protein-binding microarray
Molecule type: double-stranded DNA, one strand shown
Medium: in vitro
Concentration: 2 µM
Notes: whole 60-bp probe, lowest competitor level
Together with: Pho4 competitor, 0.05 µM
Direction: higher = stronger binding
Sequence	fluorescence intensity
TTCTCTAAAAGCCATCACGTGACTCGTTGAATCACTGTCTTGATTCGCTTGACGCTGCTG	17600 a.u.
CGGGGTTAAGTTTGTGACGTGGGTGGCTTGCAGCAGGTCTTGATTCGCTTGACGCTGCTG	93.6 a.u.
AAATTACTAAGTTGAGCAGTGGGTGACGCCGTATGAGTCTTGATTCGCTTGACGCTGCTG	60.7 a.u.
TCTCTTTGAAGCCGTCACGATAGTTACAGCTAGGGTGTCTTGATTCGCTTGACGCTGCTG	82.4 a.u.
ATCAGGCATTCATTGACCGTGCCGAACAAACCAAGCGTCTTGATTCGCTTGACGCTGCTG	61.9 a.u.
CGGGGTTAAGTTTCCCACGTGTTTTGCTTGCAGCAGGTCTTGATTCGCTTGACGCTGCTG	524 a.u.
CTAACGAAGGTTTGAATGGTGGGTGACAAGCCAAGTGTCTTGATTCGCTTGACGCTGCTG	73.5 a.u.
GTCTATAAATGCTGGCACGTGCGATCATCGCGGCGGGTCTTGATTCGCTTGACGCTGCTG	2210 a.u.
TTCTGACGGAGACAGAACGTGGCCGTGTACACTCTTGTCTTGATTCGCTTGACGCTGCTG	75.2 a.u.
GTCTTGTCTCATTGTCACACCACTTTCCCCACTTCAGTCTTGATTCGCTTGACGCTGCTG	133 a.u.
GAACTGCCGCCGGTGGACGTGCTTTGCGTCCGAGTCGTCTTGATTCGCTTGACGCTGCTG	54.7 a.u.
CATACCCAACCTTGTCACCTTACTTAAGATATTTGTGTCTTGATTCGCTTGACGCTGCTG	88.5 a.u.
AAAGCGGTAATTTGAGGGGTGGGTGCAGATATCTATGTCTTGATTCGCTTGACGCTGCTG	72.8 a.u.
TGACCTCTAGATCGGCACGTCGACCATCAGTGGGAAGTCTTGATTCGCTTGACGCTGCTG	70.8 a.u.
AAAGCGGTAATTTGATGAGTGGGTGCAGATATCTATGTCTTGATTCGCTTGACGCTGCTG	75.9 a.u.
CAGCGAGAACATCACCACGGGCTATATAAATGGAAAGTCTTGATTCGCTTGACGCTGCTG	88.5 a.u.
CTAACGAAGGTTTGTCACGGCACTTACAAGCCAAGTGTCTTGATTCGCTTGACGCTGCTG	76.4 a.u.
TCCAAGACGGTTAATCTCGTGATGGATTTTGACTACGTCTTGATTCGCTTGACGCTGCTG	502 a.u.
CGGGGTTAAGTTTGTGTCGTGGGTGGCTTGCAGCAGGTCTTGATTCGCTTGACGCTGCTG	83.2 a.u.
CTGTAGACTCAGAGTCAGCTGATTGTTGGGTATGTGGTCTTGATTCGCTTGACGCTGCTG	370 a.u.
ACAATGTTTCGACATCACCTGTTATGAAAAAAATATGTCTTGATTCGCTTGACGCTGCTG	334 a.u.

Set 5
Target: Histone acetyltransferase KAT6A, both winged helices, GST fusion (KAT6A, Homo sapiens, UniProt Q92794, residues 1-181)
Method: protein binding microarray
Molecule type: double-stranded DNA, one strand shown
Medium: in vitro
Concentration: not given
Notes: 8-mer, flanks averaged, mean of 2 arrays, mostly near background
Reference: not given
Direction: higher = stronger binding
Residues (chain): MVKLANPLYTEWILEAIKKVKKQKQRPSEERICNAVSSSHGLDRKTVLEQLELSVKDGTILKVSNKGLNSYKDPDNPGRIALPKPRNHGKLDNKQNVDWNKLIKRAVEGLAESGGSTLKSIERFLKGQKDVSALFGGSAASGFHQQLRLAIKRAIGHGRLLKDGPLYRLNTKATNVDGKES
Sequence	E-score
AAGGATAG	-0.213
CAACACAC	-0.147
CGACGTAG	-0.0137
ACTTGAGG	-0.238
ACTAAACA	-0.16
AATAATGG	-0.0387
ACCCACAG	-0.187
CAATGATG	-0.13
GCAAACAA	-0.0376
ACCATAAG	-0.0917
CCGGAATA	0.0188
ACCGTGGG	0.0272
GCTAAGCA	0.0708
ATGGACCC	0.0195
GCGCACGA	0.217
AACATGTT	0.00056
AACTCCCT	-0.2
ACTATGAG	-0.227
ACTCAATC	-0.162
AACGAGGT	-0.00374
TGCAAAAA	-0.0768
CTGCGGCA	0.238
AAGCAAAA	-0.213
TAGAGCGA	-0.0756
CAACGTTC	0.0834

A few entries again (set 1):
Sequence	log fluorescence
CTGTTTTTGCTTTCTTTATGGTGCTAG	2.86 z-score
TTAGGTTCCCTTTACCTTTAGTGCTAG	0.435 z-score
GACGATATAGGGTATCGAGACGTGCTA	0.553 z-score
GACGGTATTGGGTTTCGGGACGTGCTA	2.35 z-score
GACGATTTAGGGTTTCGAGACGTGCTA	1.26 z-score
GACGGTTCCCTTTTACTGACGTGCTAG	0.494 z-score
GACGGTTTCCTTTTCCAGACGTGCTAG	1.02 z-score
TCATTTTACATTATTACACTGTGCTAG	1.12 z-score
AATCAACTTTTTTTAATTGAGTGCTAG	0.962 z-score
GACAGTCTCCTTTTCCTGACGTGCTAG	0.246 z-score
GACGGTATCGGTTTCGCGACGTGCTAG	6.97 z-score
